# Results from different studies.
# Parts stem from different laboratories: compare values within a part only. Changes are numbered by the printed parent chain.

# Set 1 — technique: DHFR PCA, deep sequencing; medium: yeast; added: (+)-ABA 1.4 µM; relative to: wild-type fitted maximum; direction: higher = stronger binding
# Target: ABI1, truncated, D143A, DHFR fusion (Arabidopsis thaliana)
# Setting: methotrexate growth selection, single substitutions
# Starting sequence: PYL1, truncated, DHFR fusion (Arabidopsis thaliana); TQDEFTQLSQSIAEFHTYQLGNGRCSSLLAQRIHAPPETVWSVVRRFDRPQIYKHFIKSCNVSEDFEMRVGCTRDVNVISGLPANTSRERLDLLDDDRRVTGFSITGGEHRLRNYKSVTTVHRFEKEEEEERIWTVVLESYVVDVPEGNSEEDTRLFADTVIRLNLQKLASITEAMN; partner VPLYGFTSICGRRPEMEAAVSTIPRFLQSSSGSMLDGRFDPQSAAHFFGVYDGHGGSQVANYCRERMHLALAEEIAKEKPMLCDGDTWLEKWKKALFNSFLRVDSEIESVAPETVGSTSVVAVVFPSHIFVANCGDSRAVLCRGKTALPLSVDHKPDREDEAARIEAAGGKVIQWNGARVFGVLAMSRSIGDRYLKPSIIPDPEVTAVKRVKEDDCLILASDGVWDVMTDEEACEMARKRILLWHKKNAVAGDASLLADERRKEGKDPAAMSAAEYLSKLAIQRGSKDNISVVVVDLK
Variant,relative binding score
I162W,14.2%
Y141N,-5.67%
E151G,19.1%
L8I,9.68%

# Set 2 — technique: protein-binding microarray; form: double-stranded DNA, one strand shown; medium: in vitro; concentration: 940 nM top; setting: 60-bp whole probe; added: salmon DNA 0.4 mg/ml; relative to: random background probes; direction: higher = stronger binding
# Target: Interferon regulatory factor 5, full length, phosphomimetic (IRF5, Homo sapiens, UniProt Q13568-2, residues 1-514, S451D/S453D/S456D/S462D)
# Constant ends, left off below: GCCTAGCAC … GTGCTAGGTCTTGATTCGCTTGACGCTGCTG
Strand,fitted relative affinity [z-score]
GTCGATCTCAGTTTCGAGAC,6.57
GACGGTATCCTTCTACTGAC,0.851
TCATGTATGAGCCTCTGACT,-0.12
TTAGGACTGGGACTGGGATA,-0.279
GACGGTTTCCTTCTCCTCAC,1.42
TCAACTTTCTTAATGCTACT,1.16
TCACCATTAAATTTTAAACT,0.447

# Set 3 — target: CCNA1, cyclin fold, Cln2 fusion (human); technique: yeast growth competition, sequencing; medium: yeast; setting: weak parent motif; relative to: not given; direction: higher = stronger binding
# Starting sequence: WEE1 docking peptide (human); HKTFRKLRLFDTP; partner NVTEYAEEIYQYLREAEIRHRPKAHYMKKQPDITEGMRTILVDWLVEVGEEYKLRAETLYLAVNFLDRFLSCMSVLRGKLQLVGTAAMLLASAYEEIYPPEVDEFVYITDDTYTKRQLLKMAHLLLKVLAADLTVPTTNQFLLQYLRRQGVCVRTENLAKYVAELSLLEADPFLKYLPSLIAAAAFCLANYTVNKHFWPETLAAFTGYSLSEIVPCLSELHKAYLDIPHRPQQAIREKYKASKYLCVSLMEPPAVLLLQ
Variant,normalised enrichment score
L7P,0.384
R5A,-0.475
R8M,0.424
K6C,0.353

# Single results of other studies
Molecule,target,test,system,conditions,scale,endpoint,result
"PhoQ, residues 284 288 289 292 302 303 SASVAL","PhoP, residues 12 14 15 18 19 DLLYY (Escherichia coli, UniProt P23836)","Sort-seq, item: YFP reporter",E. coli,"PhoQ-PhoP variant library, added: 10 µM Mg2+","relative to: high Mg2+ state, higher = stronger signaling",fold induction,5.44

# For quick reference, copied from above (set 2):
Strand,fitted relative affinity [z-score]
GTCGATCTCAGTTTCGAGAC,6.57
TCACCATTAAATTTTAAACT,0.447
